Published values from different studies.
Protocols differ between the studies behind these lines. ± gives the spread as reported.

| SMILES | assay | test system | setting | how to read | measurement | result |
| --- | --- | --- | --- | --- | --- | --- |
| Cc1c(N(C)CS(=O)(=O)[O-])c(=O)n(-c2ccccc2)n1C.[Na+] | cytochrome c release, ELISA | mouse liver mitochondria | 30 min | relative to: maximal release by alamethicin | EC20 | > 200 µM |
| C[C@H]1C[C@@H]2[C@H]([C@@H](O)C[C@@]3(C)[C@H]2CC[C@]3(O)C(=O)CO)[C@@]2(C)C=CC(=O)C=C12 | – | human, plasma | oral, 32 mg daily, days 1 and 4 | relative to: free over total | free to total exposure ratio | ~8% |
| CCCCCCCCCCCCCCC[C@H](O)[C@@H](N)CO | – | human, phase I, plasma | intravenous, 600 mg/m^2, day 1, monotherapy | – | AUC | 106 µM·h |
| CC(C)C[C@H](NC(=O)CNC(=O)c1cc(Cl)ccc1Cl)B(O)O | – | human, plasma | intravenous bolus, 0.5 mg/m^2, day 1 | – | C0 | 0.106 µg/mL |
| COC(=O)c1ccc(O)cc1 | cytochrome c release, ELISA | BALB/cByJ female mouse liver mitochondria | 30 min | relative to: alamethicin maximal release | EC20 | > 200 µM |
| CC(C)[C@H](NC(=O)[C@@H]1CCCN1C(=O)[C@H](CCCNC(=N)N)NC(=O)[C@H](CS)NC(=O)[C@H](Cc1c[nH]c2ccccc12)NC(=O)[C@H](CCCNC(=N)N)NC(=O)[C@@H](Cc1ccccc1)NC(=O)[C@H](Cc1c[nH]cn1)NC(=O)[C@H](CCC(=O)O)NC(=O)[C@H](CS)NC(=O)[C@H](CS)NC(=O)[C@H](CCCCN)NC(=O)[C@@H]1CC(=O)N[C@@H](CCCNC(=N)N)C(=O)N[C@@H]([C@@H](C)O)C(=O)N[C@@H](CC(=O)O)C(=O)N[C@H](Cc2ccc(O)cc2)C(=O)N1)C(N)=O [technetium-99m labelled] | – | C57 mouse, female, B16/F1 melanoma, muscle | intravenous, 2 h, together with: NDP-MSH 10 µg co-injected | – | tissue uptake | 0.33 ± 0.03 %ID/g |
| C=CC(=O)Nc1cc(Nc2nccc(-c3cn(C)c4ccccc34)n2)c(OC)cc1N(C)CCN(C)C | – | male Sprague-Dawley rat, plasma | oral, 10 mg/kg, PEG200 pretreatment only | – | apparent oral clearance | 19.8 ± 5.84 L/h/kg |
| CCCC[C@@H]1NC(=O)[C@@H](NC(=O)[C@H](CCC(=O)O)NC(=O)CNC(=O)CN2CCN(CC(=O)O)CCN(CC(=O)O)CCN(CC(=O)O)CC2)CCCCNC(=O)C[C@@H](C(N)=O)NC(=O)[C@H](C(C)C)NC(=O)[C@@H]2CCCN2C(=O)[C@H](CCCNC(=N)N)NC(=O)CNC(=O)[C@H](Cc2c[nH]c3ccccc23)NC(=O)[C@H](CCCNC(=N)N)NC(=O)[C@@H](Cc2ccccc2)NC(=O)[C@H](Cc2c[nH]cn2)NC(=O)[C@H](CCC(=O)O)NC1=O [indium-111 labelled] | – | normal C57 mice, muscle | intravenous, 0.037 MBq, 4 h | – | tissue uptake | 0.03 ± 0.02 %ID/g |
| CC1=C2C[C@H]3[C@@H](CC[C@@H]4C[C@H](NS(C)(=O)=O)CC[C@@]43C)[C@@H]2CC[C@@]2(C1)O[C@@H]1C[C@H](C)CN[C@H]1[C@H]2C | – | patients, plasma | oral, 200 mg daily, day 22, cycle 1 | – | Tmax | 6 h |
| CNC(=O)c1cc(Oc2ccc(NC(=O)Nc3ccc(Cl)c(C(F)(F)F)c3)cc2)ccn1 | LC-MS/MS | nude mouse subcutaneous tumour model, tumour tissue | intratumoral, 2 mg/kg, PDC 4 miR-3609 | – | t1/2 | 41 ± 7.41 h |
| CN[C@H]1CN(c2ccc3c(=O)c(C(=O)O)cn(-c4nccs4)c3n2)C[C@@H]1OC | – | human patients, plasma | intravenous, 18 to 90 mg/m^2 weekly, day 1, cycle 1, mean, noncompartmental | – | mean residence time | 32.2 h |
| CC(C)NC[C@@H](C(=O)N1CCN(c2ncnc3c2[C@H](C)C[C@H]3O)CC1)c1ccc(Cl)cc1 | – | human, Healthy hepatic function (Child-Pugh), plasma | oral, 100 mg single dose, geometric mean | – | Vz/F | 21900 L |
| COc1cc(/C=C/C(=O)CC(=O)/C=C/c2ccc(O)c(OC)c2)ccc1O | I-125 label | C57BL/6J mouse, cerebellum | intranasal vs intraperitoneal, 10 µg/mouse IN, 100 µg/mouse IP, 24 h | relative to: intranasal over intraperitoneal | brain uptake ratio | 2.11 |
| CC(C)CCCCC(=O)N[C@@H](CCN)C(=O)N[C@H](C(=O)N[C@@H](CCN)C(=O)N[C@H]1CCNC(=O)[C@H]([C@@H](C)O)NC(=O)[C@H](CCN)NC(=O)[C@H](CCN)NC(=O)[C@H](CC(C)C)NC(=O)[C@@H](Cc2ccccc2)NC(=O)[C@H](CCN)NC1=O)[C@@H](C)O | equilibrium dialysis LC-MS/MS | human patients, plasma | dose not given, median | – | free Cmin | 0.07 µg/mL |
| CCN1CCN(c2ccc(Nc3cc(N(C)C(=O)Nc4c(Cl)c(OC)cc(OC)c4Cl)ncn3)cc2)CC1 | LC-MS/MS | juvenile male Crl:WI(Han) rats, plasma | oral gavage, 0.1 mg/kg/day, postnatal day 17 | – | AUC(0-t) | 0.0281 µg·h/mL |
| Cc1c2oc3c(C)ccc(C(=O)N[C@@H]4C(=O)N[C@H](C(C)C)C(=O)N5CCC[C@H]5C(=O)N(C)CC(=O)N(C)[C@@H](C(C)C)C(=O)O[C@@H]4C)c3nc-2c(C(=O)N[C@@H]2C(=O)N[C@H](C(C)C)C(=O)N3CCC[C@H]3C(=O)N(C)CC(=O)N(C)[C@@H](C(C)C)C(=O)O[C@@H]2C)c(N)c1=O | – | mouse, Abcc2−/− knockout, FVB background, liver | intravenous, 0.5 mg/kg | – | Tmax | 0.5 h |
| N=C(N)NCCC[C@@H]1NC(=O)[C@H](CCCCNC(=O)CC[C@H](NC(=O)COCCOCCOCCNC(=O)[C@@H]2CSC(c3nc4ccc(OCCF)cc4s3)=N2)C(=O)NCCCC[C@@H]2NC(=O)[C@@H](Cc3ccc(O)cc3)NC(=O)[C@H](CC(=O)O)NC(=O)CNC(=O)[C@H](CCCNC(=N)N)NC2=O)NC(=O)[C@@H](Cc2ccc(O)cc2)NC(=O)[C@H](CC(=O)O)NC(=O)CNC1=O [fluorine-18 labelled] | microPET | nude mice, U-87 MG xenograft, tumour | intravenous, 30 min | – | tumour uptake | 5.62 ± 1.15 %ID/g |
| CCc1oc2ccc(OC)cc2c1C(=O)c1ccc(O)cc1 | metabolic stability | Sprague-Dawley rat, liver microsomes | 1 µM, pH 7.4 | – | microsomal CLint | 61.6 µL/min/mg |

| SMILES | assay | test system | setting | how to read | measurement | result |
| --- | --- | --- | --- | --- | --- | --- |
| COc1cccc(N2CCN(C3=Nc4c(F)cccc4[C@H](CC(=O)O)N3c3cc(C(F)(F)F)ccc3OC)CC2)c1 | UHPLC-MS/MS | healthy women, plasma | intravenous infusion, 240 mg single dose, 30 min infusion, HPβCD formulation | – | AUC(0-last) | 32.5 ± 9.28 µg·h/mL |
| CC(C(=O)O)c1ccc(-c2ccccc2)c(F)c1 (stereo not drawn) | – | human, dried blood spots | dose not given, prasugrel alone session | – | AUC(0-6 h) | 3.87 µg·h/mL |
| Cn1c(=O)c2c([nH]c(=O)n2C)n(C)c1=O | – | human hemodialysis patients, plasma ultrafiltrate | pre-treatment | relative to: hemodialysis over normal subjects | free concentration ratio | 5 |
| CCN1C(=O)CNc2ncc(-c3ccc(-c4nc[nH]n4)nc3C)nc21 | – | human, plasma | oral, 40 mg once daily, multiple doses | – | AUC(0-24h) | 2.65 µg·h/mL |
| CC(C)C(=O)Nc1ccc([N+](=O)[O-])c(C(F)(F)F)c1 | cytochrome c release, ELISA | BALB/cByJ female mouse liver mitochondria | 30 min | relative to: alamethicin maximal release | EC20 | > 400 µM |
| C=CC(=O)N1CCC(CNc2ncnc(N)c2-c2ccc(Oc3ccccc3)cc2)CC1 | – | human, plasma | oral, 200 mg single dose, geometric mean | – | Vz/F | 703 L |
| CS(=O)(=O)n1cc2c(n1)CN([C@H]1CO[C@H](c3cc(F)ccc3F)[C@@H](N)C1)C2 | – | healthy male human, plasma | oral, 100 mg, fasted, geometric mean | – | AUC(0-24h) | 34.5 µM·h |
| CC[C@H](C)[C@H](NC(=O)[C@H](Cc1ccccc1)NC(=O)[C@H](CCC(=O)O)NC(=O)[C@H](CCCCNC(=O)COCCOCCNC(=O)COCCOCCNC(=O)CC[C@H](NC(=O)CCCCCCCCCCCCCCCCC(=O)O)C(=O)O)NC(=O)[C@H](C)NC(=O)[C@H](C)NC(=O)[C@H](CCC(N)=O)NC(=O)CNC(=O)[C@H](CCC(=O)O)NC(=O)[C@H](CC(C)C)NC(=O)[C@H](Cc1ccc(O)cc1)NC(=O)[C@H](CO)NC(=O)[C@H](CO)NC(=O)[C@@H](NC(=O)[C@H](CC(=O)O)NC(=O)[C@H](CO)NC(=O)[C@@H](NC(=O)[C@H](Cc1ccccc1)NC(=O)[C@@H](NC(=O)CNC(=O)[C@H](CCC(=O)O)NC(=O)C(C)(C)NC(=O)[C@@H](N)Cc1cnc[nH]1)[C@@H](C)O)[C@@H](C)O)C(C)C)C(=O)N[C@@H](C)C(=O)N[C@@H](Cc1c[nH]c2ccccc12)C(=O)N[C@@H](CC(C)C)C(=O)N[C@H](C(=O)N[C@@H](CCCNC(=N)N)C(=O)NCC(=O)N[C@@H](CCCNC(=N)N)C(=O)NCC(=O)O)C(C)C | – | Caucasian subjects | subcutaneous once weekly, 1.0 mg, geometric mean | relative to: steady state over single dose | dose-corrected accumulation ratio | 2.31 |
| COCCCCn1c(C(=O)N(CC(C)C)[C@@H]2CNC[C@H](C(=O)N3CCOCC3)C2)nc2ccccc21 | – | non-elderly human, plasma | oral, 80 mg once daily, day 7 | – | AUC(0-tau) | 3.94 µg·h/mL |
| CONC(=N)c1ccc(-c2ccc(-c3ccc(C(=N)NOC)cc3)o2)cc1 | M1 formation by O-demethylation, substrate | individual human intestinal microsomes | high-Km component | – | intrinsic clearance | 10 µL/min/mg |
| CSc1cc(Oc2ccnc3[nH]c(=O)cnc23)ccc1NC(=O)Nc1cc(C(C)(C)C)nn1-c1ccccc1 | – | female NSG and nude mice, tumour | oral, 20 mg/kg, 1 h after last dose, end of therapy | – | tumour concentration | 6.5 to 10 µM |
| CC(=O)N[C@@H](Cc1ccccc1)C(=O)N[C@H]1CCCNC(=O)[C@H](CCCNC(=N)N)NC(=O)[C@H](Cc2c[nH]c3ccccc23)NC(=O)[C@@H](CC2CCCCC2)NC(=O)[C@@H]2CCCN2C1=O | – | C57BL/6J mice, plasma | oral, 1 mg/kg | – | elimination half-life | 0.27 h |
| C[C@]12CC[C@@H]3c4ccc(O)cc4CC[C@H]3[C@@H]1C[C@@H](O)[C@@H]2O | GC-MS | breast cancer women on NSAI, serum | vaginal, 0.03 mg, 24 h, day 0 | – | maximum serum concentration | 0 ng/mL |
| O=P(O)(O)C(Cl)(Cl)P(=O)(O)O | cytochrome c release, ELISA | BALB/cByJ female mouse liver mitochondria | 30 min | relative to: alamethicin maximal release | EC20 | > 400 µM |
| Cn1c(=O)c2[nH]cnc2n(C)c1=O | – | human, fasted baseline, cerebrospinal fluid | – | – | mean concentration | 0.0652 ± 0.063 µM |
| CC1(C)S[C@@H]2[C@H](NC(=O)[C@H](N)c3ccccc3)C(=O)N2[C@H]1C(=O)O | cytochrome c release, ELISA | BALB/cByJ female mouse liver mitochondria | 30 min | relative to: alamethicin maximal release | EC20 | > 400 µM |
| CC(C)(c1ccc(O)cc1)c1ccc(O)cc1 | GC-MS | exposure tank water with snails, reconstituted water | 1000 ng/L nominal, 27 °C | – | half-life | 3.08 h |
| C[C@H](Oc1ccc(-c2nc(-c3ccc4[nH]cnc4c3)no2)cc1C(F)(F)F)C(F)(F)F.Cl | – | cynomolgus monkey aneurysm model, plasma | 0.1 mg/kg once daily, 3 months dosing | – | predose plasma concentration | 10 ± 2.6 nM |
